{"data": "Results collected from several papers", "target": "Prothrombin (F2, Homo sapiens, UniProt P00734)", "note": "Compare with care: the assays were run in different laboratories. ± gives the spread as reported."}
{"Compound": "CC(C)[C@H](NC(=O)COCC(=O)NCCCOCCOCCOCCCNC(=O)CCCC[C@@H]1SC[C@@H]2NC(=O)N[C@@H]21)C(=O)NC(c1ccc(C(=N)N)cc1)P(=O)(Oc1ccccc1)Oc1ccccc1 (stereo partly shown)", "assay": "enzyme activity, inhibitor, fluorescence", "endpoint": "IC50", "result": "280 nM"}
{"Compound": "CSCC[C@H](NC(=O)[C@@H](N)Cc1ccc(O)cc1)C(=O)N[C@@H](CO)C(=O)N[C@@H](Cc1ccccc1)C(=O)N[C@H](C(=O)N[C@@H](CCCNC(=N)N)C(=O)N[C@@H](CCCNC(=N)N)C(=O)N[C@H](C(=O)N[C@@H](CCC(=O)O)C(=O)N[C@@H](CO)C(=O)N[C@@H](CC(=O)O)C(=O)N[C@@H](CCCCN)C(=O)N[C@@H](CC(C)C)C(=O)N[C@@H](Cc1c[nH]cn1)C(=O)N[C@@H](CO)C(=O)O)[C@@H](C)O)[C@@H](C)O", "assay": "binding, double-filter binding", "setting": "1 h, room temperature", "endpoint": "Kd", "result": "310 nM"}
{"Compound": "CC[C@H](C)[C@H](NC(=O)[C@@H]1CCCN1C(=O)[C@H](CCC(=O)O)NC(=O)[C@H](CCSC)NC(=O)CNC(=O)[C@H](CC(N)=O)NC(=O)CNC(=O)CNC(=O)[C@H](CCC(=O)O)NC(=O)CNC(=O)[C@H](CCCNC(=N)N)NC(=O)[C@H](CCC(N)=O)NC(=O)[C@H](Cc1ccc(O)cc1)NC(=O)[C@H](CC(C)C)NC(=O)[C@H](CCCCN)NC(=O)[C@@H]1CCCN1C(=O)[C@H](CCC(N)=O)NC(=O)[C@H](C)NC(=O)[C@@H](NC(=O)[C@H](CCC(=O)O)NC(=O)[C@H](C)NC(=O)[C@H](CCC(=O)O)NC(=O)[C@@H](NC(=O)[C@@H]1CCCN1C(=O)[C@@H](N)CCCCN)C(C)C)C(C)C)C(=O)N1CCC[C@H]1C(=O)N[C@@H](CCC(=O)O)C(=O)N[C@@H](CC(=O)O)C(=O)N[C@H](C(=O)N[C@@H](CC(C)C)C(=O)N[C@@H](CC(N)=O)C(=O)N[C@@H](CCC(=O)O)C(=O)N[C@@H](C)C(=O)N[C@@H](CC(C)C)C(=O)N[C@@H](CC(N)=O)C(=O)N[C@@H](C)C(=O)O)C(C)C", "assay": "enzyme activity, inhibitor, absorbance", "setting": "pH 8", "endpoint": "Ki", "result": "0.0282 nM"}
{"Compound": "CC[C@H](C)[C@H](NC(=O)[C@@H]1CSSC[C@H](NC(=O)[C@H](Cc2ccc(O)cc2)NC(=O)CNC(C)=O)C(=O)N[C@@H](CO)C(=O)N[C@@H](CCCNC(=N)N)C(=O)N[C@@H](CO)C(=O)N[C@@H](Cc2ccc(O)cc2)C(=O)N2CCC[C@H]2C(=O)N2CCC[C@H]2C(=O)N[C@@H](C(C)C)C(=O)N1)C(=O)N1CCC[C@H]1C(=O)N[C@@H](CC(=O)O)C(=O)O", "assay": "enzyme activity, inhibitor", "endpoint": "Ki", "result": "434000 nM"}
{"Compound": "O=C(N[C@@H](Cc1ccccc1)C(=O)CCl)OCc1ccccc1", "endpoint": "Ki", "result": "> 100000 nM"}
{"Compound": "CC[C@H](C)[C@H](NC(=O)[C@@H]1CSSC[C@H](NC(=O)[C@H](Cc2ccc(O)cc2)NC(=O)CN)C(=O)N[C@@H](CO)C(=O)N[C@@H](CCCNC(=N)N)C(=O)N[C@@H](CO)C(=O)N[C@@H](Cc2ccc(O)cc2)C(=O)N2CCC[C@H]2C(=O)N2CCC[C@H]2C(=O)N[C@@H](C(C)C)C(=O)N1)C(=O)N1CCC[C@H]1C(=O)N[C@@H](CC(=O)O)C(N)=O", "assay": "enzyme activity, inhibitor", "endpoint": "Ki", "result": "258000 nM"}
{"Compound": "COC(=O)C[C@H](NC(=O)C(NC(=O)OCc1ccccc1)C(C)C)C(=O)CF (stereo partly shown)", "assay": "inhibitor", "endpoint": "Ki", "result": "> 200000 nM"}
{"Compound": "CC(C)C[C@H](NC(=O)[C@H](CC(C)C)NC(=O)[C@H](CCCNC(=N)N)NC(=O)CNC(=O)[C@@H]1CCCN1C(=O)[C@H](CC(=O)O)NC(=O)[C@H](CCCNC(=N)N)NC(=O)[C@H](C)NC(=O)[C@H](CO)NC(=O)[C@H](CC(=O)O)NC(=O)[C@H](Cc1ccc(O)cc1)NC(=O)[C@H](CCCNC(=N)N)NC(=O)[C@H](CC(=O)O)NC(=O)[C@H](Cc1ccccc1)NC(=O)[C@@H](N)Cc1ccccc1)C(=O)O", "assay": "binding, double-filter binding", "setting": "1 h, room temperature", "endpoint": "Kd", "result": "170 ± 40 nM"}
{"Compound": "CC(C)(C)OC(=O)C[C@H](NC(=O)OCc1ccccc1)C(=O)CBr", "endpoint": "Ki", "result": "> 200000 nM"}
{"Compound": "CC[C@H](C)[C@H](NC(=O)[C@@H]1CCCN1C(=O)[C@H](CCC(=O)O)NC(=O)[C@H](CCSC)NC(=O)CNC(=O)[C@H](CC(N)=O)NC(=O)CNC(=O)CNC(=O)[C@H](CCC(=O)O)NC(=O)CNC(=O)[C@H](CCCNC(=N)N)NC(=O)[C@H](CCC(N)=O)NC(=O)[C@H](Cc1ccc(O)cc1)NC(=O)[C@H](CC(C)C)NC(=O)[C@H](CCCCN)NC(=O)[C@@H]1CCCN1C(=O)[C@H](CCC(N)=O)NC(=O)[C@H](C)NC(=O)[C@@H](NC(=O)[C@H](CCC(=O)O)NC(=O)[C@H](C)NC(=O)[C@H](CCC(=O)O)NC(=O)[C@@H](NC(=O)[C@@H]1CCCN1C(=O)[C@@H](N)CCCCN)C(C)C)C(C)C)C(=O)N1CCC[C@H]1C(=O)N[C@@H](CCC(=O)O)C(=O)N[C@@H](CC(=O)O)C(=O)N[C@@H](Cc1ccc(O)cc1)C(=O)N[C@@H](CC(C)C)C(=O)N[C@@H](CC(N)=O)C(=O)N[C@@H](CCC(=O)O)C(=O)N[C@@H](C)C(=O)N[C@@H](CC(C)C)C(=O)N[C@@H](CC(N)=O)C(=O)N[C@@H](C)C(=O)O", "assay": "enzyme activity, inhibitor, absorbance", "setting": "pH 8", "endpoint": "Ki", "result": "0.503 nM"}
{"note": "A few entries again:"}
{"Compound": "CC[C@H](C)[C@H](NC(=O)[C@@H]1CCCN1C(=O)[C@H](CCC(=O)O)NC(=O)[C@H](CCSC)NC(=O)CNC(=O)[C@H](CC(N)=O)NC(=O)CNC(=O)CNC(=O)[C@H](CCC(=O)O)NC(=O)CNC(=O)[C@H](CCCNC(=N)N)NC(=O)[C@H](CCC(N)=O)NC(=O)[C@H](Cc1ccc(O)cc1)NC(=O)[C@H](CC(C)C)NC(=O)[C@H](CCCCN)NC(=O)[C@@H]1CCCN1C(=O)[C@H](CCC(N)=O)NC(=O)[C@H](C)NC(=O)[C@@H](NC(=O)[C@H](CCC(=O)O)NC(=O)[C@H](C)NC(=O)[C@H](CCC(=O)O)NC(=O)[C@@H](NC(=O)[C@@H]1CCCN1C(=O)[C@@H](N)CCCCN)C(C)C)C(C)C)C(=O)N1CCC[C@H]1C(=O)N[C@@H](CCC(=O)O)C(=O)N[C@@H](CC(=O)O)C(=O)N[C@H](C(=O)N[C@@H](CC(C)C)C(=O)N[C@@H](CC(N)=O)C(=O)N[C@@H](CCC(=O)O)C(=O)N[C@@H](C)C(=O)N[C@@H](CC(C)C)C(=O)N[C@@H](CC(N)=O)C(=O)N[C@@H](C)C(=O)O)C(C)C", "assay": "enzyme activity, inhibitor, absorbance", "setting": "pH 8", "endpoint": "Ki", "result": "0.0282 nM"}
